Experimental data of several laboratories.
Numbers after ± are the reported error.

| Compound | assay | system | conditions | scale | quantity | value |
| --- | --- | --- | --- | --- | --- | --- |
| CC(C)[C@H](NC(=O)[C@@H]1CCCN1C(=O)[C@H](CCCNC(=N)N)NC(=O)[C@H](CS)NC(=O)[C@H](Cc1c[nH]c2ccccc12)NC(=O)[C@H](CCCNC(=N)N)NC(=O)[C@@H](Cc1ccccc1)NC(=O)[C@H](Cc1c[nH]cn1)NC(=O)[C@H](CCC(=O)O)NC(=O)[C@H](CS)NC(=O)[C@H](CS)NC(=O)[C@@H]1CC(=O)N[C@@H](CCCNC(=N)N)C(=O)NCC(=O)N[C@@H](CC(=O)O)C(=O)N[C@H](Cc2ccc(O)cc2)C(=O)N1)C(N)=O [technetium-99m labelled] |  | C57 mouse, female, B16/F1 melanoma | intravenous, 0.037 MBq, 0.5 h | baseline: tumour over liver | tumour to tissue ratio | 3.47 |
| N=C(N)NCCC[C@@H]1NC(=O)[C@H](Cc2c[nH]c3ccccc23)NC(=O)[C@@H](CC2CCCCC2)NC(=O)[C@@H]2CCCN2C(=O)[C@@H](NC(=O)CCc2ccccc2)CCCNC1=O |  | C57BL/6J mice, brain | intraperitoneal, 1 mg/kg, two-compartment model |  | distribution rate constant k12 | 1.92 h⁻¹ |
| CC[C@H](C)[C@H](NC(=O)[C@H](CC(C)C)NC(=O)[C@H](Cc1c[nH]c2ccccc12)NC(=O)[C@H](C)NC(=O)[C@@H](NC(=O)[C@H](Cc1ccccc1)NC(=O)[C@H](CC(=O)O)NC(=O)[C@H](CCCNC(=N)N)NC(=O)[C@H](C)NC(=O)[C@H](C)NC(=O)[C@H](CC(C)C)NC(=O)[C@H](C)NC(=O)[C@H](CC(=O)O)NC(=O)[C@H](CC(C)C)NC(=O)[C@@H](NC(=O)[C@@H](NC(=O)[C@H](C)NC(=O)[C@H](CC(C)C)NC(=O)[C@H](CCC(=O)O)NC(=O)[C@H](CO)NC(=O)[C@H](CO)NC(=O)[C@H](Cc1ccccc1)NC(=O)[C@@H](NC(=O)CNC(=O)[C@H](CCC(=O)O)NC(=O)CNC(=O)[C@@H](N)Cc1c[nH]cn1)[C@@H](C)O)[C@@H](C)O)[C@@H](C)CC)[C@@H](C)CC)C(=O)N[C@@H](C)C(=O)N[C@H](C(=O)N[C@@H](CCCCN)C(=O)N[C@H](C(=O)N[C@H](C(=O)N[C@@H](CC(=O)O)C(=O)N[C@@H](CCCCN)C(=O)N[C@@H](CCCCN)C(=O)O)[C@@H](C)O)[C@@H](C)CC)[C@@H](C)O | immunoaffinity LC-MS/MS | healthy human subjects, plasma | intravenous infusion, 1 mg single dose, infused over 15 min |  | terminal half-life | 1.2 h |
| O=C(CCCCC[N+]#[C][99Tc-5]([C]#[N+]CCCCCC(=O)N[C@H]1C(O)O[C@H](CO)[C@@H](O)[C@@H]1O)([C]#[N+]CCCCCC(=O)N[C@H]1C(O)O[C@H](CO)[C@@H](O)[C@@H]1O)([C]#[N+]CCCCCC(=O)N[C@H]1C(O)O[C@H](CO)[C@@H](O)[C@@H]1O)([C]#[N+]CCCCCC(=O)N[C@H]1C(O)O[C@H](CO)[C@@H](O)[C@@H]1O)[C]#[N+]CCCCCC(=O)N[C@H]1C(O)O[C@H](CO)[C@@H](O)[C@@H]1O)N[C@H]1C(O)O[C@H](CO)[C@@H](O)[C@@H]1O (stereo partly drawn) | SPECT | nude mouse with U87 MG xenograft |  |  | time to tumour/muscle plateau | ~50 min |
| CC/C=C\C/C=C\C/C=C\C/C=C\C/C=C\CCCCOC(CC)C(=O)O (stereo not drawn) | [14C] label | male Wistar rat, kidney cortex | oral, 100 mg/kg, 8 h |  | radioactivity concentration | 38.5 µg equiv/g |
| NC12CNCCNCC(NCc3ccc(CNC(=O)CCCC(=O)NCc4ccc(-c5nncnn5)cc4)cc3)(CNCCNC1)CNCCNC2.[64Cu+2] | OLINDA dosimetry | heart wall | pretargeting, 24 h interval |  | absorbed dose | 0.0429 rad/mCi |
| O=C(O)[C@@H]1C[C@@H](O)CN1C(=O)[C@@H]1CCCN1 | potentiometric titration | water | 37 °C, 0.15 mol/dm3 NaCl |  | pKa2 | 5.44 |
| Cc1ccc(/N=N/c2c(O)ccc3ccccc23)c(C)c1 |  | rat whole blood QC samples | 5.0 µg/L, 12 h, room temperature, short-term stability |  | measured concentration | 5.13 µg/L |
| Cn1c(=O)oc2ccc(-c3ccc(CC(C#N)NC(=O)C4CNCCCO4)c(F)c3)cc21 (stereo not drawn) |  | human | oral, 20 mg once daily, TEAE, multiple ascending dose |  | abdominal pain incidence | 0% |
| COc1ccc2cc(-c3ccc(-c4ccc(C)cn4)nc3)oc2c1 | TCSPC | acetonitrile | zinc-free ligand |  | fluorescence lifetime | 1.84 ns |
| CCCC[C@H](NC(=O)[C@H](CC(C)C)N(C)C(=O)CNC(=O)[C@@H](NC(=O)[C@H](Cc1ccccc1)NC(=O)[C@H](CCCCN)NC(=O)[C@@H](N)CC(=O)O)C(C)C)C(N)=O |  | anaesthetized spinalized rat | SC, 300 µg/kg | baseline: baseline | diastolic pressure decrease | 15% |
| NC[C@@H](C(=O)Nc1ccc(-c2cn[nH]c2)cc1)c1ccccc1 | OECD 405 eye irritation | New Zealand White rabbit, eye | topical, 0.1%, 80 h (day 4), scale 0 to 3 | direction not given | conjunctival redness score | 0 |
| O=C(Cn1c(=O)c(Cc2ccccc2)nc2ccccc21)OCCNCCO | MTT | rat primary colonocytes, Albino rat, male | 72 h, concentration at 100% viability |  | safe concentration | 0.4 ± 0.078 µM |
| CCCC[C@H](NC(=O)CNC(=O)CNC(=O)CN1CCN(CC(=O)O)CCN(CC(=O)O)CC1)C(=O)N[C@H]1CC(=O)NCCCC[C@@H](C(N)=O)NC(=O)[C@H](Cc2c[nH]c3ccccc23)NC(=O)[C@H](CCCNC(=N)N)NC(=O)[C@@H](Cc2ccccc2)NC(=O)[C@H](Cc2c[nH]cn2)NC1=O [gallium-67 labelled] |  | female C57 mice, B16/F1 melanoma | intravenous, 0.037 MBq, 0.5 h | baseline: tumour over kidney | tumour to tissue ratio | 1.76 |
| CCCCCCCCCCCCCCCCCC(=O)Nc1ccn(C2OC(CO)C(O)C2(F)F)c(=O)n1 (stereo not drawn) |  | athymic nude mouse, female, BxPC-3 xenograft, plasma | intravenous, 25 mg/kg gemcitabine equivalent |  | total clearance | 26.7 ± 2.3 mL/min/kg |
| C[C@H](Oc1cc(-c2cnn(C3CCN(CC[18F])CC3)c2)cnc1N)c1c(Cl)ccc(F)c1Cl | PET imaging | nude mouse, brain | iv, 60 min post injection |  | tracer uptake | 1.8 ± 0.6 %ID/cc |
| COC(=O)c1ccc2c(c1)NC(=O)/C2=C(\Nc1ccc2c(c1)CCN2C(=O)CN1CCOCC1)c1ccccc1 |  | cynomolgus monkey, plasma | intravenous, 2 mg/kg |  | half-life | 6.82 h |

| Compound | assay | system | conditions | scale | quantity | value |
| --- | --- | --- | --- | --- | --- | --- |
| NCCCC(=O)OCC(=O)c1ccc(O)c(C(F)(F)F)c1.O=C(O)C(F)(F)F | photolysis at 300 nm | ammonium acetate buffered acetonitrile-water | pH 5.0, 0.01 mol/L buffer |  | quantum yield of disappearance | 0.24 |
| CC(C)CCN(Cc1ccc(F)cc1)c1nc(C#N)nc(N2CCOCC2)n1 |  | female CD-1 mice | intraperitoneal, 10 mg/kg, 7 h |  | plasma concentration | 3.1 ng/mL |
| CCCC[C@@H]1NC(=O)[C@H](Cc2ccc(O)cc2)NC(=O)[C@@H]2CCCN2C(=O)[C@H](CC(=O)O)NC(=O)[C@H](C)NC(=O)[C@H](Cc2ccccc2)NC(=O)[C@@H]2CSCCC(=O)N3CN(CN(C3)C(=O)CCSC[C@@H](C(=O)N[C@@H](C)C(N)=O)NC1=O)C(=O)CCSC[C@H](NC(C)=O)C(=O)N[C@@H](CC(C)(C)C)C(=O)N1CCC[C@H]1C(=O)N[C@@H](CCC(=O)O)C(=O)N[C@H](CCCCNC(=O)CCc1cn(CCOCCOCCOCCN(CCOCCOCCOCCC(=O)N[C@H]3CSCCC(=O)N4CN5CN(C4)C(=O)CCSC[C@H](NC(=O)[C@@H](CC(=O)O)NC(=O)[C@H](Cc4cccc6ccccc46)NC(=O)[C@@H]4CCCN4C3=O)C(=O)N[C@@H](CCSC)C(=O)N[C@@H](CCCCNC(=N)N)C(=O)N[C@@H](CC(=O)O)C(=O)N[C@@H](Cc3c[nH]c4ccccc34)C(=O)N[C@@H](CO)C(=O)N[C@@H]([C@@H](C)O)C(=O)N3CCC[C@H]3C(=O)N3C[C@H](O)C[C@H]3C(=O)N[C@@H](Cc3c[nH]c4ccccc34)C(=O)N[C@H](C(N)=O)CSCCC5=O)CCOCCOCCOCCn3cc(CCC(=O)NCCCC[C@H]4NC(=O)[C@H](CCC(=O)O)NC(=O)[C@@H]5CCCN5C(=O)[C@H](CC(C)(C)C)NC(=O)[C@@H](NC(C)=O)CSCCC(=O)N5CN6CN(C5)C(=O)CCSC[C@H](NC(=O)[C@H](Cc5ccc(O)cc5)NC(=O)[C@@H]5CCCN5C4=O)C(=O)N[C@@H](Cc4ccccc4)C(=O)N[C@@H](C)C(=O)N[C@@H](CC(=O)O)C(=O)N4CCC[C@H]4C(=O)N[C@@H](Cc4ccc(O)cc4)C(=O)N[C@@H](CCCC)C(=O)N[C@H](C(=O)N[C@@H](C)C(N)=O)CSCCC6=O)nn3)nn1)C(=O)N1CCC[C@H]1C(=O)N[C@@H](Cc1ccc(O)cc1)C(=O)N2 |  | cynomolgus monkey, plasma | intravenous, infusion |  | half-life | 6.7 h |
| CN1C(=O)[C@@H](Cc2ccc(O)c(I)c2)NC(=O)CNC(=O)[C@H](Cc2ccc3ccccc3c2)NC(=O)[C@H](CCCNC(=N)N)NC(=O)[C@H]1CCCNC(=O)c1ccc(CNC(=O)CN2CCN(CC(=O)O)CCN(CC(=O)O)CCN(CC(=O)O)CC2)cc1 [lutetium-177 labelled] | 1 | human, extrapolated from mouse, kidneys |  |  | total absorbed dose | 0.21 mGy/MBq |
| NCCCC(=O)OCC(=O)c1cc(F)c(O)c(F)c1.O=C(O)C(F)(F)F | photolysis, refers to: GABA appearance | aqueous HEPES buffer with LiClO4 | pH 8.2 |  | quantum yield | 0.02 |
| CN1C(=O)c2cccc3c2C1=Cc1ccccc1N3Cc1cccc(NC2CCN([11CH3])CC2)c1 | PET/CT | C57BL/6 mouse male, spleen | intravenous, 5 min |  | SUV | 0.31 |
| CC(C)CCCC(C)CCCC(C)CCO[C@@H]1O[C@H](CO)[C@@H](O[C@H]2O[C@H](CO)[C@@H](O)[C@H](O)[C@H]2O)[C@H](O)[C@H]1O (stereo partly drawn) | dynamic surface tension |  | 0.0018 mmol/L |  | induction time | 433 s |
| Oc1ccc2ccccc2c1/N=N/c1ccc(/N=N/c2ccccc2)cc1 |  | rat whole blood extract | 0.2 µg/L, 30 days, -20 °C, long-term storage |  | stability deviation | 2% |
| C=CCc1ccc(O)c(-c2cc(CC=C)ccc2OCCCCCCCCCC[P+](c2ccccc2)(c2ccccc2)c2ccccc2)c1 |  | C57BL/6 mouse, non-tumour-bearing, serum | dose not given, day 31 |  | glucose level | 160 ± 18.6 mg/dL |
| CN1CCC[C@]1(C)/C=C/S(=O)(=O)NC(=O)Nc1c2c(cc3c1CCC3)CCC2 |  | human, plasma | oral, 50 mg twice daily, day 1, tau 12 h, multiple ascending dose |  | AUC(0-tau) | 31600 ng·h/mL |
| CC(C)[C@H](NC(=O)CNC(=O)[C@H](CCC(N)=O)NC(=O)[C@H](C)N)C(=O)O | LC-MS/MS | human, plasma | intravenous, 10 mg/kg three times daily, day 3, first dose, 10 min infusion, geometric mean |  | AUC(0-inf) | 273 ng·h/mL |
| COCCOCCOCCOCCC(=O)NCc1cc(CNC(=O)CCOCCOCCOCCOC)cc(-c2cc3cc4nc(c(-c5ccc(CCC(=O)O)cc5)c5[nH]c(cc6nc(c(OC)c2[nH]3)CC6(C)C)cc5-c2cc(CNC(=O)CCOCCOCCOCCOC)cc(CNC(=O)CCOCCOCCOCCOC)c2)CC4(C)C)c1 |  | water with 5% DMF | room temperature |  | B band absorption maximum | 362 nm |
| CCNC(=O)OCc1c(COC(=O)NCC)c(-c2ccc(OC)cc2)n2c1Cc1ccccc1-2 |  | BALB/c nude mice, blood | dose not given, day 10 |  | mean cell haemoglobin | 15.4 ± 0.16 pg |
| CC[C@H](C)[C@H](NC(=O)[C@H](N)Cc1ccc(O)cc1)C(=O)N[C@H]1CSSC[C@@H](C(=O)N(C)[C@H](C(N)=O)[C@@H](C)CC)NC(=O)[C@H](CCCNC(=N)N)NC(=O)[C@H](Cc2c[nH]cn2)NC(=O)[C@H](C)NC(=O)CN(C)C(=O)[C@H](Cc2c[nH]c3ccccc23)NC(=O)[C@H](CC(=O)O)NC(=O)[C@H](CCC(N)=O)NC(=O)[C@H](Cc2cn(C)c3ccccc23)NC(=O)[C@H](C(C)C)NC1=O | UPLC-ESI-MS | cynomolgus monkey plasma | 0.36 µg/mL, 48 h, 4 °C, autosampler after SPE |  | recovery | 99.3 ± 0.4% |
| NCCCC(=O)OCC(=O)c1ccc(O)cc1F.O=C(O)C(F)(F)F | photolysis, refers to: rearranged acid appearance | unbuffered water |  |  | quantum yield | 0.26 |
| CCC1(CC)C[C@@H](NC(=O)Nc2cccc3c(C)nccc23)c2cc(F)ccc2O1 |  | rat | intraperitoneal, 3 mg/kg, ambient temperature 17 °C | baseline: vehicle | decrease in deep body temperature | ~1 °C |

Excerpt of the above:
| Compound | assay | system | conditions | scale | quantity | value |
| --- | --- | --- | --- | --- | --- | --- |
| NC[C@@H](C(=O)Nc1ccc(-c2cn[nH]c2)cc1)c1ccccc1 | OECD 405 eye irritation | New Zealand White rabbit, eye | topical, 0.1%, 80 h (day 4), scale 0 to 3 | direction not given | conjunctival redness score | 0 |
| CC(C)[C@H](NC(=O)CNC(=O)[C@H](CCC(N)=O)NC(=O)[C@H](C)N)C(=O)O | LC-MS/MS | human, plasma | intravenous, 10 mg/kg three times daily, day 3, first dose, 10 min infusion, geometric mean |  | AUC(0-inf) | 273 ng·h/mL |
| Oc1ccc2ccccc2c1/N=N/c1ccc(/N=N/c2ccccc2)cc1 |  | rat whole blood extract | 0.2 µg/L, 30 days, -20 °C, long-term storage |  | stability deviation | 2% |
